Earlier results that unrelated publications cite.
Protocols differ between the studies behind these lines. Numbers after ± are the reported error. Values after ≈ are worked out from the molar mass of the structure shown.

The survival of O=C(N[C@@H](Cn1ccnc1)c1ccc(Cl)cc1Cl)c1ccc(-c2nnc(-c3ccccc3)o2)cc1 is reported as 100% (Trypanosoma cruzi; Tulahuen, mouse, Chagas disease model; dose not given).
The IC50 of Clc1cc(Br)ccc1-c1ccc(CNCC2CCNCC2)o1 is reported as 0.1 µM (Trypanosoma brucei brucei; Squib 427).
For Cc1ccc(C(=O)Nc2ccc(S(=O)(=O)O)c3cc(S(=O)(=O)O)cc(S(=O)(=O)O)c23)cc1NC(=O)c1cccc(NC(=O)Nc2cccc(C(=O)Nc3cc(C(=O)Nc4ccc(S(=O)(=O)O)c5cc(S(=O)(=O)O)cc(S(=O)(=O)O)c45)ccc3C)c2)c1, the IC50 was 0.066 ± 0.0052 µM (Trypanosoma brucei brucei; cell growth; GUTat3.1).
The treatment duration of CN(C)c1ccc(O)c2c1C[C@H]1C[C@H]3[C@H](N(C)C)C(O)=C(C(N)=O)C(=O)[C@@]3(O)C(O)=C1C2=O is reported as 4 week (Brugia malayi; Wolbachia depletion above 90%; SCID mouse; exposure equivalent to human 100 mg/day).
The IC50 of CC1CS(=O)(=O)CCN1/N=C/c1ccc([N+](=O)[O-])o1 (stereo not shown) is reported as 2.62 ± 1.4 µM (Trypanosoma evansi; Tansui).
With Cc1ccc(C(=O)c2oc3ccc4c(C)cc(=O)oc4c3c2C)cc1 the IC50 was over 32 µM (Trypanosoma brucei rhodesiense; STIB 900).
With OC(Cn1cncn1)(Cn1cncn1)c1ccc(F)cc1F the MIC50 was at least 160 µM (Trichophyton rubrum; azole-resistant).
C[C@](C#N)(COc1cc(C#N)ccc1C(F)(F)F)NC(=O)c1ccc(SC(F)(F)F)cc1 gave an efficacy of about 100% (gastrointestinal nematodes; resistant to benzimidazoles, levamisole and macrocyclic lactones, sheep).
With FC(F)(F)c1cccc(CNC2CCN(CCc3ccccc3)CC2)c1 the IC50 was 2.7 µM (Trypanosoma brucei brucei; Squib 427).
With NCCCC(N)(C(=O)O)C(F)F (stereo not shown) the IC50 was 16.1 ± 2.93 µM (Trypanosoma congolense; IL3000).
With CCCCc1cc2c(=O)c(C(=O)OC)c[nH]c2cc1OCCOc1ccccc1 the curative dose was 15 mg/kg (Plasmodium cynomolgi; sporozoite, rhesus monkey; 7 days).
CCCCCCCCCCCCCC#CC(=O)O gave an active concentration of 21.4 to 56.8 µM (Gram-positive cocci; growth; incl. penicillin-resistant Staphylococcus aureus).
With N=C(N)c1ccc(OCCCCCOc2ccc(C(=N)N)cc2)cc1 the IC50 was 0.0013 ± 0.0003 µM (Trypanosoma equiperdum; cell growth; IVM-t1).
For CO/N=C1\CN(c2nc3c(cc2F)c(=O)c(C(=O)O)cn3C2CC2)CC1CN (stereo not shown), the MIC90 was 0.03 µg/mL (≈ 0.077 µM) (Streptococcus pneumoniae).
Under “protection against vertical transmission”, CCOc1ccc2cc(-c3nn(CC4CCN(C)CC4)c4ncnc(N)c34)ccc2c1 is recorded as 84% (Neospora caninum; pregnant mice; dose not given).
For COCCNC(=O)c1ccc(OC2CCN(Cc3ccc(F)c(F)c3)CC2)c(Cl)c1, the IC50 was 16.1 µM (Trypanosoma brucei rhodesiense; STIB 900).
For Clc1ccc(COC(Cn2ccnc2)c2ccc(Cl)cc2Cl)c(Cl)c1 (stereo not shown), the fold change was 2.1 fold (Candida albicans; refers to: YDC1; concentration not given; reference: untreated).
For CCOc1cccc(C(=O)Nc2ccc(-c3nc4ccccc4[nH]3)cc2)c1, the IC50 was over 32 µM (Trypanosoma brucei rhodesiense; STIB 900).
The MIC90 of CN[C@H]1C(=O)N[C@@H]2Cc3ccc(cc3)Oc3cc4cc(c3O[C@@H]3O[C@H](C(=O)O)[C@@H](O)[C@H](O)[C@H]3NC(=O)CCCCCCCCC(C)C)Oc3ccc(cc3Cl)[C@@H](O)[C@@H]3NC(=O)[C@H](NC(=O)[C@@H]4NC(=O)[C@@H](NC2=O)c2cc(cc(O)c2Cl)Oc2cc1ccc2O)c1ccc(O)c(c1)-c1c(O[C@H]2O[C@H](CO)[C@@H](O)[C@H](O)[C@@H]2O)cc(O)cc1[C@@H](C(=O)NCCCN(C)C)NC3=O is reported as 0.06 µg/mL (≈ 0.033 µM) (Staphylococcus aureus; clinical isolates).

Excerpt of the above:
For CCOc1cccc(C(=O)Nc2ccc(-c3nc4ccccc4[nH]3)cc2)c1, the IC50 was over 32 µM (Trypanosoma brucei rhodesiense; STIB 900).
The MIC90 of CN[C@H]1C(=O)N[C@@H]2Cc3ccc(cc3)Oc3cc4cc(c3O[C@@H]3O[C@H](C(=O)O)[C@@H](O)[C@H](O)[C@H]3NC(=O)CCCCCCCCC(C)C)Oc3ccc(cc3Cl)[C@@H](O)[C@@H]3NC(=O)[C@H](NC(=O)[C@@H]4NC(=O)[C@@H](NC2=O)c2cc(cc(O)c2Cl)Oc2cc1ccc2O)c1ccc(O)c(c1)-c1c(O[C@H]2O[C@H](CO)[C@@H](O)[C@H](O)[C@@H]2O)cc(O)cc1[C@@H](C(=O)NCCCN(C)C)NC3=O is reported as 0.06 µg/mL (≈ 0.033 µM) (Staphylococcus aureus; clinical isolates).
